Measurements collected from several papers.
Lines come from different studies, so protocols differ. “And” joins repeats or separate records; there may be more than shown. ± marks the error that the study gave.
DHODH: Dihydroorotate dehydrogenase (quinone), mitochondrial (DHODH, Homo sapiens, UniProt Q02127)
CASP9: Caspase-9 (CASP9, Homo sapiens, UniProt P55211)
USP5: Ubiquitin carboxyl-terminal hydrolase 5 (USP5, Homo sapiens, UniProt P45974)
Ugcg: Ceramide glucosyltransferase (Ugcg, Mus musculus, UniProt O88693)
CASP4: Caspase-4 (CASP4, Homo sapiens, UniProt P49662)
Lysophospholipase-like protein 1: Lysophospholipase-like protein 1 (Mus musculus, UniProt Q3UFF7)

`COc1ccc(-c2ccc([C@H]3[C@@H](F)[C@@H](F)C[C@@H](F)[C@H]3F)cc2)cc1OC` gave a hepatic clearance of 0.66 L/h/kg (hepatocyte stability; cryopreserved human hepatocytes; 1 µM).
Under “isoTOP-ABPP competition ratio”, `CCCCCCCCCCCCC/C=C/C=O` is recorded as 1.3 (Large ribosomal subunit protein eL24 (Homo sapiens, UniProt P83731); competitive isoTOP-ABPP; proteome, soluble, MDA-MB-231; 100 µM, 60 min, added: iodoacetamide probe; reference: DMSO over compound-treated, higher = stronger cysteine blockade).
With `COc1ccc(/C=C2\S/C(=N/c3ccc(F)cc3C(=O)O)NC2=O)cc1` the reaction rate was -29.7 a.u. (DHODH; enzyme activity, inhibitor, DCIP reduction; 0.1 µM; higher = more activity).
`CC[C@H](C)[C@H](NC(=O)[C@H](CC(=O)O)NC(C)=O)C(=O)N[C@H](C(=O)N[C@H](C(=O)N[C@@H](CCCNC(=N)N)C(=O)N[C@@H](Cc1ccc(O)cc1)C(=O)N[C@@H](CC(N)=O)C(=O)NCC(=O)N[C@@H](CCCCN)C(=O)N[C@H](C(=O)N[C@@H](Cc1c[nH]c2ccccc12)C(=O)N[C@@H](Cc1c[nH]c2ccccc12)C(=O)N[C@@H](CCCNC(=N)N)C(=O)O)C(C)C)[C@@H](C)O)[C@@H](C)O` — result for “random coil content”: 22% (Insulin (INS, Bos taurus, UniProt P01317); circular dichroism; insulin-peptide complex; concentration not given, 800 min, 62 °C, heat incubation, added: insulin 350 µM).
`COC(=O)[C@@]1(Cc2ccccc2)C=C(C(=O)OC(C)(C)C)C(=O)CC1` has a fraction bound of 0.757 (Mitogen-activated protein kinase 14 (MAPK14, Homo sapiens, UniProt Q16539, C162A); peptide binding, fluorescence polarization; 7.812 µM).
`CC(=O)N1C[C@H](O)C[C@H]1C(=O)N[C@H](C(=O)N[C@@H](CO)C(=O)N[C@@H](CC(=O)O)C(=O)COC(=O)c1c(C)cccc1C)C(C)C` has a kinact/KI of 31400 M⁻¹ s⁻¹ (CASP9; enzyme activity, inhibitor).
The percent effect of `CN(/N=C/c1ccc(F)cc1C(=O)NO)c1nc(-c2ccccc2Cl)cs1` is reported as 1.57% and -0.77% and -0.23% (DHODH; enzyme activity, inhibitor, DCIP colorimetric; 10000 nM).
With `CC[C@H](NC(=O)[C@@H](NC(=O)[C@@H](NC(C)=O)C(C)C)C(C)(C)C)C(=O)N[C@@H](CC(=O)O)C(=O)COC(=O)c1c(C)cccc1C` the kinact/KI was 157000 M⁻¹ s⁻¹ (CASP9; enzyme activity, inhibitor).
The inhibition of `N#C/C(=C\c1ccc(N2CCOCC2)o1)C(=O)NCC1CCCO1` (stereo not shown) is reported as 18% (USP5; enzyme activity, inhibitor; 17 µM).
With `CC(=O)N[C@@H](Cc1c[nH]c2ccccc12)C(=O)N[C@@H](CCCNC(=N)N)C(=O)N[C@@H](CO)C(=O)N[C@@H](CC(=O)O)C(=O)COC(=O)c1c(C)cccc1C` the kinact/KI was 3900 M⁻¹ s⁻¹ (CASP9; enzyme activity, inhibitor).
With `COC(=O)[C@@]1(C)C=C(C(=O)Nc2cccc(C(=O)Nc3ccc(Nc4nccc(-c5cccnc5)n4)c(C)c3)c2)C(=O)CC1` the remaining activity was 0.934 and 0.886 and 0.958 (Mitogen-activated protein kinase 1 (MAPK1, Homo sapiens, UniProt P28482); enzyme activity, inhibitor; 0.5487 µM, unit not given; reference: vehicle).
For `C=CC(=O)N1CC2(CCN(c3nc(OC4CCN(CCCOC)CC4)nc4c(OCC(F)(F)F)c(-c5c(C)ccc6[nH]ncc56)c(C5CC5)cc34)CC2)C1`, “association rate constant” read 36200 ± 4900 M⁻¹ s⁻¹ (GTPase KRas, GDP-bound (KRAS, Homo sapiens, UniProt P01116, Q61R); binding, surface plasmon resonance).
The inhibition of `CC(=O)N(C1=C(O)C(=O)c2ccccc2C1=O)c1ccccc1` is reported as 26% (USP5; enzyme activity, inhibitor; 17 µM).
`Cc1cccc(-c2ccc(COCCCCCN3C[C@H](O)[C@@H](O)[C@H](O)[C@H]3CO)cc2)c1` has an IC50 of 0.1 µM (Ugcg; enzyme activity, inhibitor, fluorescence).
`O=C(CN1CCCCC1)Nc1ccc(C2CCCCC2)cc1` gave a hepatic clearance of 0.72 L/h/kg (human liver microsomes; 1 µM, without NADPH).
`CCCCCCCCOCCCCCN1C[C@H](O)[C@@H](O)[C@H](O)[C@@H]1CO` gave an IC50 of 0.05 µM (Ugcg; enzyme activity, inhibitor, fluorescence).
For `CN(C)c1ccc2c(c1)C(=O)N(CCc1ccc(O)cc1)C2=O`, the emission maximum was 510 nm (Carbonic anhydrase 2 (CA2, Homo sapiens, UniProt P00918); binding).
The remaining binding of `CN1CCN(Cc2ccc(NC(=O)c3cccc(C#Cc4cnc(N)c5ncccc45)c3)cc2C(F)(F)F)CC1` is reported as 100% (Atypical kinase COQ8A, mitochondrial (COQ8A, Homo sapiens, UniProt Q8NI60); cell-free assay, competition with immobilised ligand; 50 nM).
For `CC(=O)NCCCC[C@H](NC(C)=O)C(=O)N[C@@H](CCCC(=O)O)C(=O)N[C@@H](C)C(=O)N[C@@H](CC(=O)O)C(=O)COC(=O)c1c(C)cccc1C`, the kinact/KI was 20400 M⁻¹ s⁻¹ (CASP4; enzyme activity, inhibitor).
The specific binding of `O=C1c2sc(-c3ccc(N4CCC(F)C4)nc3F)nc2CCN1c1cccnc1` (stereo not shown) is reported as 5.93 nM and 4.61 nM (TAR DNA-binding protein 43, aggregated (TARDBP, Homo sapiens, UniProt Q13148); radioligand binding; human, FTLD-TDP type B extract; added: radioligand 142.86 nM).
`Nc1nc(SCc2ccc(Cl)cc2)nn1S(=O)(=O)c1cccc2scnc12` — result for “probe labeling increase”: 2.1 fold (Lysophospholipase-like protein 1; enzyme activity, activator, gel-based ABPP; purified protein; concentration not given, added: FP-rhodamine; reference: DMSO).
For `Cc1nn(-c2ccccc2)c2c1CC1(C(=O)NC(=O)c3ccccc31)C1CCCN21` (stereo not shown), the inhibition was 20% (USP5; enzyme activity, inhibitor; 17 µM).
The koff of `CC(=O)N[C@@H](CCCNC(=N)N)C(=O)N[C@H](C(=O)N[C@@H](CCCCN)C(=O)N[C@@H](CO)C(=O)N[C@@H](CCCNC(=N)N)C(=O)N[C@H](C(=O)N[C@@H](Cc1c[nH]c2ccccc12)C(=O)N[C@@H](C)C(=O)N1Cc2ccccc2C[C@H]1C(N)=O)[C@@H](C)OP(=O)(O)O)[C@@H](C)O` is reported as 0.043 s⁻¹ (14-3-3 protein epsilon (Homo sapiens, UniProt P62258); binding, SPR).
`CC(=O)N[C@@H](CC(C)C)C(=O)N[C@@H](CCC(=O)O)C(=O)N[C@@H](COCc1ccccc1)C(=O)N[C@@H](CC(=O)O)C(=O)COC(=O)c1c(C)cccc1C` has a kinact/KI of 67200 M⁻¹ s⁻¹ (CASP4; enzyme activity, inhibitor).
`Nc1nc(SCc2ccc(Cl)cc2)nn1S(=O)(=O)c1ccc(Cl)cc1` — result for “probe labeling increase”: 2 fold (Lysophospholipase-like protein 1; enzyme activity, activator, gel-based ABPP; purified protein; concentration not given, added: FP-rhodamine; reference: DMSO).

Some of these lines once more:
`CC(=O)N[C@@H](CC(C)C)C(=O)N[C@@H](CCC(=O)O)C(=O)N[C@@H](COCc1ccccc1)C(=O)N[C@@H](CC(=O)O)C(=O)COC(=O)c1c(C)cccc1C` has a kinact/KI of 67200 M⁻¹ s⁻¹ (CASP4; enzyme activity, inhibitor).
For `Cc1nn(-c2ccccc2)c2c1CC1(C(=O)NC(=O)c3ccccc31)C1CCCN21` (stereo not shown), the inhibition was 20% (USP5; enzyme activity, inhibitor; 17 µM).
